Assay results collected from several papers.
Parts stem from different laboratories: compare values within a part only.
UniProt Q13976, sequence (whole entry, looked up): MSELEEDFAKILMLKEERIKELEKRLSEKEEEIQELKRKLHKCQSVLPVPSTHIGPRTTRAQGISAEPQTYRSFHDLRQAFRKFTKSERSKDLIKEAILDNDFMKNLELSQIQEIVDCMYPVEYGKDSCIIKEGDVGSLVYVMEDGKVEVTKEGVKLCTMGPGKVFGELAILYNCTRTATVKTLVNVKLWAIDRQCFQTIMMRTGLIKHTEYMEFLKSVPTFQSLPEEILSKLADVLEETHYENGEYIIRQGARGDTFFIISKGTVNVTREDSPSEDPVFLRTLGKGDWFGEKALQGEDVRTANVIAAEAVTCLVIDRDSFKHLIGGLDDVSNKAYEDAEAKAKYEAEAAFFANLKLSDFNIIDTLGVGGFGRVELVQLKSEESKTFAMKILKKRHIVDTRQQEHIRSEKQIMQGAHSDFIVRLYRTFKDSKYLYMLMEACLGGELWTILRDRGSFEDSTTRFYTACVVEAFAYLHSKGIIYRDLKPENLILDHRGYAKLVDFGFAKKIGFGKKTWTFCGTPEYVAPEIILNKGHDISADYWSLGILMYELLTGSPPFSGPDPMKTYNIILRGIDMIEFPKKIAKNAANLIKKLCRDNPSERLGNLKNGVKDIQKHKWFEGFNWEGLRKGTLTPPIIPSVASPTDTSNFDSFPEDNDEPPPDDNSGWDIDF

Block 1 — method: RNA Bind-n-Seq; molecule type: RNA; medium: in vitro; concentration: 200 nM; setting: whole 134-nt RNA, ends assumed; with: 150 mM KCl; relative to: input library; direction: higher = stronger binding
Target: Fragile X messenger ribonucleoprotein 1, C-terminal low-complexity region (Fmr1, Mus musculus, UniProt P35922)
Shared flanks, not repeated: GGGAGUUCUACAGUCCGACGAUC … UGGAAUUCUCGGGUGUCAAGG
Strand	log2 enrichment
UCCUCAAGUCCUGUGCUACACAUCGUAUGUACCGAAUCGGGCGGGCGGCGGAAAGUAUUAUGUUACGCCGUUCGGAUCUGCACUUCCAGC	-0.261
GCAGGAAGUAAAAACAAAUGGAAAUGCUUCGGAUAGUGGCAGGGGUGGGGGUUGCUAAGGAAAGGGUGGGAUGGGAGUGGGUAAAGAGUA	0.585
AAAGCAAGAGAUGGCUAGUGCUUCAUCCAGCCAAAGAGGUAUGCUUGUUGCUUAAUUAAACCUUAAAGGUAACUUUGAGUUACUCCAGUA	-0.876
AAGAUUUAGAGAUGAAUUAAAUUUAAUUAGGGGUUGCUAAGAAGCGAGCACUGACCAGAUAAGAAUGCUGGUUUUCCUAAAUGCAGUGAA	-0.499
GUCCUGUGCUACACAUCGUAUGUACCGAAUCAAAUUUUUAAACCCCCCCAAAUUUAAAAAAGUAUUAUGUUACGCCGUUCGGAUCUGCAC	0.219
UCAAGUCCUGUGCUACACAUCGUAUGUACCGAAUCGGGGCCCGGCCCGGCCCGGAAAGUAUUAUGUUACGCCGUUCGGAUCUGCACUUCC	-0.221
GGGUGGACACUGACGAGCUGGACAGCAACGUGGACGACUGGGAAGAGGAGACCAUUGAGUUCUUCGUCACUGAAGAAAUCAUUCCCCUCG	-0.985
AGUCCUGUGCUACACAUCGUAUGUACCGAAUCGGGAAAGGGUUUUUUUGGGAAAGGGAAAGUAUUAUGUUACGCCGUUCGGAUCUGCACU	0.0726

Block 2 — method: protein-binding microarray; molecule type: double-stranded DNA, one strand shown; medium: in vitro; concentration: 0.8 µM; setting: whole 60-bp probe, no competitor; direction: higher = stronger binding; shared flanks, not repeated: … GTCTTGATTCGCTTGACGCTGCTG
Target: Centromere-binding protein 1, full length, N-terminal tag (CBF1, Saccharomyces cerevisiae, UniProt P17106, residues 1-351)
UniProt P17106, sequence (whole entry, looked up): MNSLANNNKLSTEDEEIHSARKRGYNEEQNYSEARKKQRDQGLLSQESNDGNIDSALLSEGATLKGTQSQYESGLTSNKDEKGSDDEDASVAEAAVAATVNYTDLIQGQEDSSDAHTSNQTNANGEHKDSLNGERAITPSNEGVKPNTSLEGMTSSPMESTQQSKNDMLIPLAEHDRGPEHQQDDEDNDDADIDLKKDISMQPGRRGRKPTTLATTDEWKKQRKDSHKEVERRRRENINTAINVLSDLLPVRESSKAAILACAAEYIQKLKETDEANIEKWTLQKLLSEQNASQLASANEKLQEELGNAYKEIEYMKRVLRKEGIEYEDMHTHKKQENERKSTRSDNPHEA
Strand	fluorescence intensity
GAACTCGGTATATCCAACGTGCAGGCCAATATCTAG	561 a.u.
CCTAACTACTATAAATATGTGACATAGCTTCGTACA	518 a.u.
GAAATTTTTAAAAATCACGTAGGATAAATAGTATAG	650 a.u.
GAATATAAAGTATGTCATGAGTAAACTAGTTGATAG	554 a.u.
GAACTTTATTTTTTTGGCGTGACCAGCGGGTACTAG	1110 a.u.
CTAATCGATAACAGGGACGTGCGCCGCTAATGTTTC	521 a.u.
GAATGCTGCCACCCTCACCTCACTAACGCTGCGTAG	484 a.u.
CTATCTTCAACAAGAAACGTGACGGAACTCATATTC	1460 a.u.

Block 3 — method: protein-binding microarray; molecule type: double-stranded DNA, one strand shown; medium: in vitro; concentration: 940 nM top; setting: 60-bp whole probe; with: salmon DNA 0.4 mg/ml; relative to: random background probes; direction: higher = stronger binding; shared flanks, not repeated: GCCTAGCAC … GTCTTGATTCGCTTGACGCTGCTG
Target: Interferon regulatory factor 5, full length, phosphomimetic (IRF5, Homo sapiens, UniProt Q13568-2, residues 1-514, S451D/S453D/S456D/S462D)
Strand	fitted relative affinity [z-score]
TTAGGTATCGGGATTCGGTTAGTGCTA	4.65
TTAGATTCGAGTTTCGATTAGTGCTAG	7.71
TCACCTCTGCATTCCCTACTGTGCTAG	0.769
GACTGACTGCTTTTCCTGACGTGCTAG	0.112
GACGATTTCGGTTCCGAGACGTGCTAG	2.01
GTAGATATCAGTATCGATTAGTGCTAG	4.68
GAAATTTTTTTTCTAACTAAGTGCTAG	0.7
TTAAGACTGGGTATCGGTTAGTGCTAG	3.51

Further values, each from its own experiment
Structure (SMILES)	target	observed	method	concentration	quantity	value
C[C@H](NC(=O)c1cnc2n1[C@](C)(Cc1ccc(C#N)cc1)C(=O)N2c1cc(Cl)c(F)c(Cl)c1)C(=O)NC1(c2ccccn2)CC1	cGMP-dependent protein kinase 1 (PRKG1, Homo sapiens, UniProt Q13976)	cell-free assay	competition with immobilised ligand	1 µM	remaining binding	62%
